Measured values collected from several papers.
Every numbered part comes from another study and shows a few of its results, in no order. “And” joins repeats or separate records; there may be more than shown.
UniProt Q8N752, sequence (whole entry, looked up): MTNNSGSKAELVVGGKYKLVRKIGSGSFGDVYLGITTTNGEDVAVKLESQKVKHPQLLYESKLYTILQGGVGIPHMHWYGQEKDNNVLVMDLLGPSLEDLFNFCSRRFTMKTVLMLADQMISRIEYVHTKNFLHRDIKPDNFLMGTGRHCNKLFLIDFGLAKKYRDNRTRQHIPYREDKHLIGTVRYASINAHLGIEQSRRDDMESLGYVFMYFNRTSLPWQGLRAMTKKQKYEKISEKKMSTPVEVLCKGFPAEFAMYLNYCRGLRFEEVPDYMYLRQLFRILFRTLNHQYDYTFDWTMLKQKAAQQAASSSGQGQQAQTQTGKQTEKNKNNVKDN
UniProt Q56UN5, sequence (whole entry, looked up): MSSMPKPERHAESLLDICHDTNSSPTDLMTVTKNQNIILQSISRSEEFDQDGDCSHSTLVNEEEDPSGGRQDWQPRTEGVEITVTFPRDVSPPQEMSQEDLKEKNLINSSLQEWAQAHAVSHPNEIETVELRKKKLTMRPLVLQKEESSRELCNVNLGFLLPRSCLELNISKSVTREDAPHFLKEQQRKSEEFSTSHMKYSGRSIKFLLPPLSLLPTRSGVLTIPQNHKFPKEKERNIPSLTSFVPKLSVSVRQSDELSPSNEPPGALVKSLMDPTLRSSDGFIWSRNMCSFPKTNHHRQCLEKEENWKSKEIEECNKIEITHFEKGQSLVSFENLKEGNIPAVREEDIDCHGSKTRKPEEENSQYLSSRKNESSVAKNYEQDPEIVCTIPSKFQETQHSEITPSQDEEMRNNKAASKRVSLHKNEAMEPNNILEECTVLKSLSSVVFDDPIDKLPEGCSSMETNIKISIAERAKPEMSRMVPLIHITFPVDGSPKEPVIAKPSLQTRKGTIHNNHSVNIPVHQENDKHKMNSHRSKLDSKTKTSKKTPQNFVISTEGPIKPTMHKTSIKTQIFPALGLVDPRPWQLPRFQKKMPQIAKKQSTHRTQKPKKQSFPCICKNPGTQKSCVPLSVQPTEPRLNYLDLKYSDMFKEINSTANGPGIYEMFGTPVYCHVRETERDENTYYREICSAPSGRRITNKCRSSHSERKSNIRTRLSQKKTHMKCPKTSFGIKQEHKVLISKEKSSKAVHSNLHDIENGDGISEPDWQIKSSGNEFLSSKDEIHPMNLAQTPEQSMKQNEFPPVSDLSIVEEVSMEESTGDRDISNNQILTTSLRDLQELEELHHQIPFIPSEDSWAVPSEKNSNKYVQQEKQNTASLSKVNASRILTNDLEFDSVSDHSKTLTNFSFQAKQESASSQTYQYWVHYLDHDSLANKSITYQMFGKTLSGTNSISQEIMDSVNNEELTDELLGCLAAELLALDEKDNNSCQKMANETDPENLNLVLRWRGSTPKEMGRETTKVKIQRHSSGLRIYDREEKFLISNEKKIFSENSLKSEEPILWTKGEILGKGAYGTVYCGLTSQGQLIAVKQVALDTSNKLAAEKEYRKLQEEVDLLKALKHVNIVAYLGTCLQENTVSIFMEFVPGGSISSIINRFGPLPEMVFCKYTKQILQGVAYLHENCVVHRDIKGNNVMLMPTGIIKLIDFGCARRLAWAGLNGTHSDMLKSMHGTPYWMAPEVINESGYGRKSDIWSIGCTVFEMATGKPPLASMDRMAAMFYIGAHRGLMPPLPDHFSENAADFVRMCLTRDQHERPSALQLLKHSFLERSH
UniProt P48730, sequence (whole entry, looked up): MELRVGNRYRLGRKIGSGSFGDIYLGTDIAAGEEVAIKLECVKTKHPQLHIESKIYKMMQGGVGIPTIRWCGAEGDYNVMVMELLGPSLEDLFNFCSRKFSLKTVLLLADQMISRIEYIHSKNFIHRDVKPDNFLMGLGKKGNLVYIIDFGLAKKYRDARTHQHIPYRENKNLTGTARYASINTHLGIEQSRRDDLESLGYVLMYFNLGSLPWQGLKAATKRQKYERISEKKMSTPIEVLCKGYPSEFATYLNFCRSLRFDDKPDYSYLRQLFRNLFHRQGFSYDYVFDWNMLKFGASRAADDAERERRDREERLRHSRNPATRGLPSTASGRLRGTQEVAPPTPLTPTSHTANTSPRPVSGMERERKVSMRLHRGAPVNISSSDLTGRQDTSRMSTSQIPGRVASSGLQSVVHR
UniProt O94806, sequence (whole entry, looked up): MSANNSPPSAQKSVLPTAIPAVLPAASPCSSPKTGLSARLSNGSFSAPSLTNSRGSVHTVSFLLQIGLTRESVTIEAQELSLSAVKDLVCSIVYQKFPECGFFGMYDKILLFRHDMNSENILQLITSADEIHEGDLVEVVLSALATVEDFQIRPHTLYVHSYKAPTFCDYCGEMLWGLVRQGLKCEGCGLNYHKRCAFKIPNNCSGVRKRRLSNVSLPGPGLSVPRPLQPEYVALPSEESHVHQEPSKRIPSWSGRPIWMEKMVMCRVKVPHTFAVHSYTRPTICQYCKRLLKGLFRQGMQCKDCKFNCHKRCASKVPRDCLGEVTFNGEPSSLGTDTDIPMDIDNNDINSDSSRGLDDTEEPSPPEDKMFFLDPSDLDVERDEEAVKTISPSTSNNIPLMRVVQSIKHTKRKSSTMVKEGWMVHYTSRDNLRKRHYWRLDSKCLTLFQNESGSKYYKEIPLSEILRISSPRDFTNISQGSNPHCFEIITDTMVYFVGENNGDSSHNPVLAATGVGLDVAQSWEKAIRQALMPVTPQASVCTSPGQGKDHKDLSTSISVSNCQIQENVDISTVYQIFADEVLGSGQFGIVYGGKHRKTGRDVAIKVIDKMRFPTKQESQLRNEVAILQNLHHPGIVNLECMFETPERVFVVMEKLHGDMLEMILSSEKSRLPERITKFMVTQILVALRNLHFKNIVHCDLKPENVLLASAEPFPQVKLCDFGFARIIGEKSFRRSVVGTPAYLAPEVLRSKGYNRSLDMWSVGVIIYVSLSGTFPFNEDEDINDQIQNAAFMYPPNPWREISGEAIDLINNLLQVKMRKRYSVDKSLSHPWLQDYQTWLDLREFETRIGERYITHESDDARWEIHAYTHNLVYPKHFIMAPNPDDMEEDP
UniProt Q9H0K1, sequence (whole entry, looked up): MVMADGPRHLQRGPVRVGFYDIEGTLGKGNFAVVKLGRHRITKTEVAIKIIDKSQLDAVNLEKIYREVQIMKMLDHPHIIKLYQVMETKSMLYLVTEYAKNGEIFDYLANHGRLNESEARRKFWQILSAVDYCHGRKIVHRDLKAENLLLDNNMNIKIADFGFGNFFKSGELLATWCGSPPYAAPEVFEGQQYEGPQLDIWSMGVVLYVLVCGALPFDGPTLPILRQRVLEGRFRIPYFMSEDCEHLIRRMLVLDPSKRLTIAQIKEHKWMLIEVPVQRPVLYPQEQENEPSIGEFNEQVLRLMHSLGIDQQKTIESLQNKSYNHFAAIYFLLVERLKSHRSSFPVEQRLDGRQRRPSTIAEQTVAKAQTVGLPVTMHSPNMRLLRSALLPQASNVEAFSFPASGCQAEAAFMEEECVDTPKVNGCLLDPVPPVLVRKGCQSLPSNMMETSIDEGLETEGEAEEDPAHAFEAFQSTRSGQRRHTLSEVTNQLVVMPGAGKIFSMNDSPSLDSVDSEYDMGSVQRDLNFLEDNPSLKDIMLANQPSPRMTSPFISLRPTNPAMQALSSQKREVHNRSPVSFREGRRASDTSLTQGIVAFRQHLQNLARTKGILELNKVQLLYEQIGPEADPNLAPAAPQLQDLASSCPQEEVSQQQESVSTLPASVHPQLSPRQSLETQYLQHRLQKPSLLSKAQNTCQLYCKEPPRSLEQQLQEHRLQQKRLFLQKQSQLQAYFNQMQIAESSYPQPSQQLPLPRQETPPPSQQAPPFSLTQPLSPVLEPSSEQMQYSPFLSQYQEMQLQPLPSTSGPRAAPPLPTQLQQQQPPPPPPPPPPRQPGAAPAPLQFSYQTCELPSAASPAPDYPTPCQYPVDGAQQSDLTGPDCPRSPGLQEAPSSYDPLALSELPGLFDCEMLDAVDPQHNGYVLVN
UniProt P49841, sequence (whole entry, looked up): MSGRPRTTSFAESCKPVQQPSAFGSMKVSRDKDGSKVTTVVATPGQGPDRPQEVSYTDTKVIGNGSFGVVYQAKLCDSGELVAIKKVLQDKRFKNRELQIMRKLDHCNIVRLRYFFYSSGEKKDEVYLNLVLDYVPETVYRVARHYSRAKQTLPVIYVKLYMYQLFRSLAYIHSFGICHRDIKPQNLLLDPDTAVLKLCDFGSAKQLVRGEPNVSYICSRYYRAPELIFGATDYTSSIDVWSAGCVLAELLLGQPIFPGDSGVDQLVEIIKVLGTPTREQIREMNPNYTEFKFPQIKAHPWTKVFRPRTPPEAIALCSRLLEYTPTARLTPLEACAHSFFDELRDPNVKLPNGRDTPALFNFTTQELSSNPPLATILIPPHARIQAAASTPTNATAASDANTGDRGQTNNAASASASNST

Series 1
Cell line: mouse MPNST tumor cells
Technique: high-content immunofluorescence imaging
Measured: nuclear SOX9
Concentration: 10 µM
Time: 12 h
Notes: mean of 2 replicates
Reference: DMSO control
Direction: higher = more nuclear SOX9
SMILES	nuclear SOX9 intensity
N#Cc1ccc(NC(=O)Nc2ccccc2Br)c2n[nH]nc12	105 % of DMSO
Nc1nc(N)c2nc(-c3cccc(Cl)c3)c(N)nc2n1	106 % of DMSO
CCCn1c(=O)c(C)cn2nc(N)nc12	102 % of DMSO
OCCN(CCO)c1nc(N2CCCCC2)c2nc(N(CCO)CCO)nc(N3CCCCC3)c2n1	97.5 % of DMSO and 97.3 % of DMSO
CC1(C)O[C@@H]2C[C@H]3[C@@H]4CCC5=CC(=O)C=C[C@]5(C)[C@H]4[C@@H](O)C[C@]3(C)[C@]2(C(=O)CO)O1	74.6 % of DMSO
C[C@@H]1CCC[C@H](C)N1NC(=O)c1ccc(Cl)c(S(N)(=O)=O)c1	107 % of DMSO

Series 2
Target: Calcium/calmodulin-dependent protein kinase type II subunit alpha (CAMK2A, Homo sapiens, UniProt Q9UQM7)
UniProt Q9UQM7, sequence (whole entry, looked up): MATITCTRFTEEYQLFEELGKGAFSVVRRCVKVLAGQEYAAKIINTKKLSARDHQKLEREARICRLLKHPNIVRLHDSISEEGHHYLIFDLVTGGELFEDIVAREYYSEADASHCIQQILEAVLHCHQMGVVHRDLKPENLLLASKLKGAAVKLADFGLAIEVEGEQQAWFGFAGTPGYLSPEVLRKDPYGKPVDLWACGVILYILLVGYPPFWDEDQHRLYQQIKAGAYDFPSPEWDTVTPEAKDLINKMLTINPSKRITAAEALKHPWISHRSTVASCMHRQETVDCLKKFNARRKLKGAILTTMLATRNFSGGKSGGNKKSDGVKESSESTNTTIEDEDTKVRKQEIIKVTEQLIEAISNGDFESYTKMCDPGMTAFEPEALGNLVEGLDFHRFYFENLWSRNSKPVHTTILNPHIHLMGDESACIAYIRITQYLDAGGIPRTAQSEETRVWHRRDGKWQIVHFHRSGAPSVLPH
Observed: enzyme activity
Action: inhibitor
Concentration: 10 µM
SMILES	inhibition
CC1(C)Oc2cc3oc(-c4cc(O)cc(O[C@@H]5OC[C@@H](O)[C@H](O)[C@H]5O)c4)cc3cc2CC1O (stereo partly drawn)	-29%
CNc1nc2c(ncn2[C@@H]2O[C@H](CO)[C@@H](O)[C@H]2O)c(=O)[nH]1	-10%
O=C(/C=C/c1ccc(O)c(O)c1)O[C@@H]1C[C@](OC(=O)/C=C/c2ccc(O)c(O)c2)(C(=O)O)C[C@@H](O)[C@H]1O	0%
Nc1nc2c(ncn2[C@H]2C[C@H](O)[C@@H](CO)O2)c(=O)[nH]1	0.13% and 0.39%
C=C[C@H]1[C@H](O[C@@H]2O[C@H](CO)[C@@H](O)[C@H](O)[C@H]2O)OC=C2C(=O)OCC[C@]21O	-20%
C[C@@H]1O[C@@H](OC[C@H]2O[C@@H](OCCc3ccc(O)c(O)c3)[C@H](O)[C@@H](O)[C@@H]2O)[C@H](O)[C@H](O)[C@H]1O	-17%
C/C=C/C(=O)C1=C(C)CCCC1(C)C	5%

Series 3
SMILES: CC1=C(C#N)C(c2ccc3c(c2)c(NC(=O)c2ccccc2C)nn3C)C(C#N)=C(C)N1
Concentration: 1 µM
target	observed	technique	remaining binding [%]
SRC (Homo sapiens, UniProt P12931)	cell-free assay	competition with immobilised ligand	89
SRPK1 (Homo sapiens, UniProt Q96SB4)	cell-free assay	competition with immobilised ligand	89
Receptor-type tyrosine-protein kinase FLT3, autoinhibited (FLT3, Homo sapiens, UniProt P36888)	cell-free assay	competition with immobilised ligand	96
GSK3B (Homo sapiens, UniProt P49841)	cell-free assay	competition with immobilised ligand	81
SBK1 (Homo sapiens, UniProt Q52WX2)	cell-free assay	competition with immobilised ligand	98
MAP3K19 (Homo sapiens, UniProt Q56UN5)	cell-free assay	competition with immobilised ligand	82
TXK (Homo sapiens, UniProt P42681)	binding	competition with immobilised ligand	100
CSNK1D (Homo sapiens, UniProt P48730)	cell-free assay	competition with immobilised ligand	89
EGFR (Homo sapiens, UniProt P00533, del746-750)	cell-free assay	competition with immobilised ligand	52
STK10 (Homo sapiens, UniProt O94804)	cell-free assay	competition with immobilised ligand	68
MKNK2 (Homo sapiens, UniProt Q9HBH9)	cell-free assay	competition with immobilised ligand	100
CSNK1A1L (Homo sapiens, UniProt Q8N752)	cell-free assay	competition with immobilised ligand	97
EGFR (Homo sapiens, UniProt P00533, T790M)	cell-free assay	competition with immobilised ligand	100
PRKD3 (Homo sapiens, UniProt O94806)	cell-free assay	competition with immobilised ligand	72
SIK2 (Homo sapiens, UniProt Q9H0K1)	cell-free assay	competition with immobilised ligand	93
Aurora kinase C (AURKC, Homo sapiens, UniProt Q9UQB9)	cell-free assay	competition with immobilised ligand	97
AAK1 (Homo sapiens, UniProt Q2M2I8)	binding		90
MELK (Homo sapiens, UniProt Q14680)	cell-free assay	competition with immobilised ligand	81

Series 4
SMILES: CC(C)(C(=O)O)[C@H](NC(=O)Cc1cccc(I)c1)c1ccc2oc(=O)[nH]c2c1
Technique: Incucyte 3D growth
Concentration: 30 µM
Direction: higher = more growth
cell line	time	spheroid area
A375	462.52 h	1.54e+08 a.u. and 1.79e+08 a.u. and 1.42e+08 a.u. and 1.62e+08 a.u.
KP-4	234 h	4.64e+07 a.u. and 4.74e+07 a.u. and 4.71e+07 a.u. and 7.05e+07 a.u. and 4.3e+07 a.u. and 2.24e+07 a.u.
IPC-298	252 h	3.29e+07 a.u. and 4.3e+07 a.u. and 3e+07 a.u. and 2.6e+07 a.u. and 2.73e+07 a.u. and 3.83e+07 a.u.
PC-9	114 h	8.41e+08 a.u. and 8.58e+08 a.u. and 8.51e+08 a.u. and 8.28e+08 a.u. and 8.12e+08 a.u. and 8.5e+08 a.u.
MEL-JUSO	60.52 h	7.72e+06 a.u. and 1.16e+07 a.u. and 1.11e+07 a.u. and 1.28e+07 a.u. and 1.25e+07 a.u. and 1.33e+07 a.u.

A few entries again (series 4):
cell line	time	spheroid area
IPC-298	252 h	3.29e+07 a.u. and 4.3e+07 a.u. and 3e+07 a.u. and 2.6e+07 a.u. and 2.73e+07 a.u. and 3.83e+07 a.u.
PC-9	114 h	8.41e+08 a.u. and 8.58e+08 a.u. and 8.51e+08 a.u. and 8.28e+08 a.u. and 8.12e+08 a.u. and 8.5e+08 a.u.
MEL-JUSO	60.52 h	7.72e+06 a.u. and 1.16e+07 a.u. and 1.11e+07 a.u. and 1.28e+07 a.u. and 1.25e+07 a.u. and 1.33e+07 a.u.
